Measurements collected from several papers.
Compare with care: the assays were run in different laboratories. ± marks the error that the study gave.
Rbp1: Retinol-binding protein 1 (Rbp1, Rattus norvegicus, UniProt P02696)
Sequence of UniProt P02696 (whole entry, looked up): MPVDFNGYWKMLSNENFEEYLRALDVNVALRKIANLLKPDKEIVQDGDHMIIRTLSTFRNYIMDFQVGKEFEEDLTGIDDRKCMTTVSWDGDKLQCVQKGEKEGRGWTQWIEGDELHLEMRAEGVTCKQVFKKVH
THG1 K96A: tRNA(His) guanylyltransferase (THG1, Saccharomyces cerevisiae, UniProt P53215, K96A)
Sequence of UniProt P53215 (whole entry, unmodified, looked up): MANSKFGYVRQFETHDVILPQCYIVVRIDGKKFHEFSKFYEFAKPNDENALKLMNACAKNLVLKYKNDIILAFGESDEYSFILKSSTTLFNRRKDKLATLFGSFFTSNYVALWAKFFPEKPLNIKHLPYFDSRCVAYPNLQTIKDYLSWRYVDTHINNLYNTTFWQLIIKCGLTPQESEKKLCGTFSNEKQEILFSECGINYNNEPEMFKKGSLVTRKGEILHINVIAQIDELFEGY
Methyl-accepting chemotaxis protein CtaA sensing domain: Methyl-accepting chemotaxis protein CtaA, sensing domain (Pseudomonas fluorescens, UniProt Q3K7T6)
Sequence of UniProt P09429 (whole entry, looked up): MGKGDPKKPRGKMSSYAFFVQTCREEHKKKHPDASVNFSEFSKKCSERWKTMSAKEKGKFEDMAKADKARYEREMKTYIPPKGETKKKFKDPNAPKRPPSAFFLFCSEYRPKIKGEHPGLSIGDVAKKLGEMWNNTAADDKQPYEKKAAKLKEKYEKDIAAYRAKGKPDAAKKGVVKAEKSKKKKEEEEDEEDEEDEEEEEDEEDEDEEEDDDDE
Sequence of UniProt Q06124 (whole entry, looked up): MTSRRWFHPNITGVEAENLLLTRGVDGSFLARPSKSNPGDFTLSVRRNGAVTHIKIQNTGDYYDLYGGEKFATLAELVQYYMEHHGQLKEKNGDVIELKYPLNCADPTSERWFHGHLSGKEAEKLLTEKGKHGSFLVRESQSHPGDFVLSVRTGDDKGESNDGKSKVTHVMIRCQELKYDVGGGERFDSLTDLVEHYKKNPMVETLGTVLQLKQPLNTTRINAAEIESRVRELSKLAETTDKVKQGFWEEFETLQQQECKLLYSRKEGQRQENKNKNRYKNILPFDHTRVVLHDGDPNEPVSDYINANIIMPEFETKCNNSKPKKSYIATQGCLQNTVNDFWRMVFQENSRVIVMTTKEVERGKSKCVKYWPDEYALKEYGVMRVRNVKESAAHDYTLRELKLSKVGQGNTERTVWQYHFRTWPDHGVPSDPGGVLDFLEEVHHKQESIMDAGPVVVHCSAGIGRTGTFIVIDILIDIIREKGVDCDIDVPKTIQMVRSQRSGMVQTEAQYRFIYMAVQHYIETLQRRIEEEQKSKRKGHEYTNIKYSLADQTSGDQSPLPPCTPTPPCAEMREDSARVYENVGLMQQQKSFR
Sequence of UniProt P02730 (whole entry, looked up): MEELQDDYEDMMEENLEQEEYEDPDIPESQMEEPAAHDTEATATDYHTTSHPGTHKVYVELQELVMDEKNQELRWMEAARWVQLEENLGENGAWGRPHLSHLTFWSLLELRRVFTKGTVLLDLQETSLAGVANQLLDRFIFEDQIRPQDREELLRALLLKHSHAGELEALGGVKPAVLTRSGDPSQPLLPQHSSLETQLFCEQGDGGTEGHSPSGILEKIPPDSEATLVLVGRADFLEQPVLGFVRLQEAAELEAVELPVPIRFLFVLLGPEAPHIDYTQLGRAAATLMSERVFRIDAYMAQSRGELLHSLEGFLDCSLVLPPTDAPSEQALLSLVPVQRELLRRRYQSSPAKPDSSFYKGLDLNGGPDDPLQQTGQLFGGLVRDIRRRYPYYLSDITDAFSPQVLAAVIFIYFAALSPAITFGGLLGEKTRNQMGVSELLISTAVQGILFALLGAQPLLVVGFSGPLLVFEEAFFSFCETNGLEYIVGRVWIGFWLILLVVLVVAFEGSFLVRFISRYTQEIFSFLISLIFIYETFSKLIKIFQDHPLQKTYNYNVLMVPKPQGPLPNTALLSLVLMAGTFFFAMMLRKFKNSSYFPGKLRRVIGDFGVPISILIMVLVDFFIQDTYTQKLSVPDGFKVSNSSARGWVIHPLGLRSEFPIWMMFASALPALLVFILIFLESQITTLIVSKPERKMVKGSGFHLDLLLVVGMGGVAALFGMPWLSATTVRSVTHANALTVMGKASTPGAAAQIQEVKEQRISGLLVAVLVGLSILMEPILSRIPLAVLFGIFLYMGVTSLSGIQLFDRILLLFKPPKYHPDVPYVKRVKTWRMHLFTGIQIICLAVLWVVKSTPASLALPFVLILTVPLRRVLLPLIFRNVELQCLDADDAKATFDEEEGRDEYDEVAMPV
Sequence of UniProt Q14849 (whole entry, looked up): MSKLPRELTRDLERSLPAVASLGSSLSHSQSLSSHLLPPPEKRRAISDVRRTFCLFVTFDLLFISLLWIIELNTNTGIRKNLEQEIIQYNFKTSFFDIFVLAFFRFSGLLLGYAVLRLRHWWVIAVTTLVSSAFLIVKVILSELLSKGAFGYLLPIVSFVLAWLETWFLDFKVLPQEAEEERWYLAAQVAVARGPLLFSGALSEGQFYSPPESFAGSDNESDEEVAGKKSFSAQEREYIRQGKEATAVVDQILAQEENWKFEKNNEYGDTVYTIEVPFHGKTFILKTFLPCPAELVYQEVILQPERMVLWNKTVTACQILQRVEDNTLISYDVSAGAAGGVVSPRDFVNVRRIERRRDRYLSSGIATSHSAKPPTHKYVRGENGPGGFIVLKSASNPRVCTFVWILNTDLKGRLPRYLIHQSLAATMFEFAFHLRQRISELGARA
Sequence of UniProt Q9UL54 (whole entry, looked up): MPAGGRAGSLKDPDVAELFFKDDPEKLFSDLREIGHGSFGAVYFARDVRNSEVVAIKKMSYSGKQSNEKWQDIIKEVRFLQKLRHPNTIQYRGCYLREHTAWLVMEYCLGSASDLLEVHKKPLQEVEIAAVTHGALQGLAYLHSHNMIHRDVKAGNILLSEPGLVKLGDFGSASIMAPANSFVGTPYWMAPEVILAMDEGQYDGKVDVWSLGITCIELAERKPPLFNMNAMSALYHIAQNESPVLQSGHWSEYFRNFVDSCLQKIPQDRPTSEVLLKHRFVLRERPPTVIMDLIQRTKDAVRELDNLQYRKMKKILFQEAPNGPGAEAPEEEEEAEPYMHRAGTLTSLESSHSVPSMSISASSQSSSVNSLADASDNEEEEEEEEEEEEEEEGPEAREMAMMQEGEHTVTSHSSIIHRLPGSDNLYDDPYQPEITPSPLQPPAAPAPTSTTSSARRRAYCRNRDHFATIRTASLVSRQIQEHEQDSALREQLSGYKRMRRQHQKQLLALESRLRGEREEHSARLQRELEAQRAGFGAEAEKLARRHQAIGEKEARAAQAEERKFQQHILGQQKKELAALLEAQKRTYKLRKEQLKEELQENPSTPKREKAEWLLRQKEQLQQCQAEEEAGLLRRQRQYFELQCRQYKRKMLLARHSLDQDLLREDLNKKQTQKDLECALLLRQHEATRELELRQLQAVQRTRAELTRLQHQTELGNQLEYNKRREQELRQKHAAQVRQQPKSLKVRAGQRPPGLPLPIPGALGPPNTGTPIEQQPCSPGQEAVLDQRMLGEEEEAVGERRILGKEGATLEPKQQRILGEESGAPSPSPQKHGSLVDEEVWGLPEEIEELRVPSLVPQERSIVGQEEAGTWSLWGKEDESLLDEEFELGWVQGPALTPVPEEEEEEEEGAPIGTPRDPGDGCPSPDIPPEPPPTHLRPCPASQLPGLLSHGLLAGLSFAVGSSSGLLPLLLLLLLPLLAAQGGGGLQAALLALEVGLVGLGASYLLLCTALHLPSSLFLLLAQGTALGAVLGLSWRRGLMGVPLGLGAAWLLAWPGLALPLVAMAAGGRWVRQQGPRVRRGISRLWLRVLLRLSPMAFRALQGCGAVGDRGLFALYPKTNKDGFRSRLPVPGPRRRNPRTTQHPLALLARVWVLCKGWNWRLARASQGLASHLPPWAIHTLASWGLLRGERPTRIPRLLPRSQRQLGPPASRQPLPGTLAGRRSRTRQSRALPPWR
Sequence of UniProt Q06520 (whole entry, looked up): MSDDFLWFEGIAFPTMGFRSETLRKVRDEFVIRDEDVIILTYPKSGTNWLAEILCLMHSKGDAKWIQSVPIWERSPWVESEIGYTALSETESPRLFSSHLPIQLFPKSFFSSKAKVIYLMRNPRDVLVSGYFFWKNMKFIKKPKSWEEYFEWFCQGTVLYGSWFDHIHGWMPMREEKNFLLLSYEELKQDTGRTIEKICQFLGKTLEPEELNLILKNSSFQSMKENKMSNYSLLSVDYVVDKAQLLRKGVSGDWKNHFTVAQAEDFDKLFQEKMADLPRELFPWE
Sequence of UniProt Q14145 (whole entry, looked up): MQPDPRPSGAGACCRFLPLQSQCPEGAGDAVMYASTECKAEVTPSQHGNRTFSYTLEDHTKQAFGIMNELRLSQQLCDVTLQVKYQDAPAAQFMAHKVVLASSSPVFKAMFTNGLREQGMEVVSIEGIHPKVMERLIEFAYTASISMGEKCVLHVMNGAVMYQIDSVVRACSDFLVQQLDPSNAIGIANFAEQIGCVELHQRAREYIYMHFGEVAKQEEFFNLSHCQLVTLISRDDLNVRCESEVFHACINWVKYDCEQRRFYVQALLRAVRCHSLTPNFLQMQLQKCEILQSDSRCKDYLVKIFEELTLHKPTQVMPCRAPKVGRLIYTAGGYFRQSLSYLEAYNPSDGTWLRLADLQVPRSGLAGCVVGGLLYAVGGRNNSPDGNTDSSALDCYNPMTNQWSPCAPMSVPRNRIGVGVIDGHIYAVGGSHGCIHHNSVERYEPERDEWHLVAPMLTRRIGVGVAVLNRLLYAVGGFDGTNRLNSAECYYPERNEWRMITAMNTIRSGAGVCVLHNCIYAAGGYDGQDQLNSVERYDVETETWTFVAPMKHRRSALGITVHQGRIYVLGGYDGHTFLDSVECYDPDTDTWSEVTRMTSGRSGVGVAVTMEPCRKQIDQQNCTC

[Cl][Fe]([Cl])[Cl]  Kd (Iron(3+)-hydroxamate-binding protein YxeB (yxeB, Bacillus subtilis, UniProt P54941); binding, Trp fluorescence quenching; pH 7.4, with: yxeB 100 nM): 0.115 ± 0.055 µM
COc1cccc2c1C(=O)c1c(O)c3c(c(O)c1C2=O)C[C@@](O)(C(C)=O)C[C@@H]3O[C@H]1C[C@H](N)[C@H](O)[C@H](C)O1  Kd (HIV-1 SL2 RNA stem-loop; binding, ESI-FTMS titration; pH 7.5): 22.7 ± 3.6 µM
O=C(O)c1cc(NC(=O)C2CC2c2ccccc2)ccc1O (stereo not shown)  Kd (GTPase KRas (KRAS, Homo sapiens, UniProt P01116); microscale thermophoresis; second low-affinity site, with: GNP-bound): 10 µM
CC(=O)N[C@@H](CC(C)C)C(=O)N[C@@H](CCCCN)C(=O)N[C@@H](CCCCN)C(=O)N[C@@H](CC(C)C)C(=O)N[C@@H](CC(C)C)C(=O)N[C@@H](CCCCN)C(=O)N[C@@H](CC(C)C)C(=O)N[C@@H](Cc1c[nH]c2ccccc12)C(=O)N[C@@H](CCCCN)C(=O)N[C@@H](CCCCN)C(=O)N[C@@H](CC(C)C)C(=O)N[C@@H](CC(C)C)C(=O)N[C@@H](CCCCN)C(=O)N[C@@H](CC(C)C)C(=O)N[C@@H](C)C(=O)NCC(N)=O  Kd (16S rRNA A-site hairpin (Escherichia coli); competitive fluorescence anisotropy; pH 7.4, 20 °C, with: rhodamine-Rev peptide): 0.065 ± 0.008 µM
[I-].[K+]  Kd (SLC4A1 (Homo sapiens, UniProt P02730); Cl- exchange, inhibitor, 36Cl flux, one-site model; erythrocytes; site C protonated): 940 µM
N=C(N)NCCC[C@H](NC(=O)c1ccc2c(c1)C(=O)OC21c2ccc(O)cc2Oc2cc(O)ccc21)C(=O)N[C@@H](CO)C(=O)N[C@@H](CCCNC(=N)N)C(=O)N[C@@H](CO)C(=O)N[C@@H](CCCNC(=N)N)C(=O)N[C@@H](CO)C(=O)N[C@@H](CCCNC(=N)N)C(=O)N[C@@H](CO)C(=O)N[C@@H](CCCNC(=N)N)C(=O)N[C@@H](CO)C(=O)N[C@@H](CCCNC(=N)N)C(=O)N[C@@H](CO)C(=O)N[C@@H](CCCNC(=N)N)C(=O)N[C@@H](CO)C(=O)N[C@@H](CCCNC(=N)N)C(=O)N[C@@H](CO)C(=O)N[C@@H](CCCNC(=N)N)C(=O)N[C@@H](CO)C(=O)N[C@@H](CCCNC(=N)N)C(=O)N[C@@H](CO)C(=O)N[C@@H](CCCNC(=N)N)C(=O)N[C@@H](CO)C(=O)N[C@@H](CCCNC(=N)N)C(=O)N[C@@H](CO)C(=O)N[C@@H](CCCNC(=N)N)C(=O)N[C@@H](CO)C(=O)N[C@@H](CCCNC(=N)N)C(=O)N[C@@H](CO)C(=O)N[C@@H](CCCNC(=N)N)C(=O)N[C@@H](CO)C(=O)N[C@@H](CCCNC(=N)N)C(=O)N[C@@H](CO)C(=O)O  Kd (SRPK1 ΔS; peptide binding, fluorescence; with: fluorescein-labelled Arg-Ser peptide): 0.034 ± 0.004 µM
CC(=O)N[C@@H](Cc1c[nH]c2ccccc12)C(=O)N[C@@H](CCCCN)C(=O)N[C@@H](CCCCN)C(=O)N[C@@H](CC(C)C)C(=O)N[C@@H](CC(C)C)C(=O)N[C@@H](CCCCN)C(=O)N[C@@H](CC(C)C)C(=O)N[C@@H](CC(C)C)C(=O)N[C@@H](CCCCN)C(=O)N[C@@H](CCCCN)C(=O)N[C@@H](CC(C)C)C(=O)N[C@@H](CC(C)C)C(=O)N[C@@H](CCCCN)C(=O)N[C@@H](CC(C)C)C(=O)N[C@@H](C)C(=O)NCC(N)=O  Kd (16S rRNA A-site hairpin (Escherichia coli); competitive fluorescence anisotropy; pH 7.4, 20 °C, with: rhodamine-Rev peptide): 0.00076 ± 5e-05 µM
CN1C(=Cc2cc[n+](C)c3ccccc23)Sc2ccccc21  Kd (RNA A; RNase V1 footprinting; pH 7.0, ambient, with: 10 mM MgCl2): 3.1 ± 1.8 µM
CC1=C(/C=C/C(C)=C/C=C/C(C)=C\CO)C(C)(C)CCC1  Kd (Rbp1; binding, fluorescence titration; pH 7.4, 25 °C): 0.003 ± 0.001 µM
HPVHHYQ-NH2 (C-amide)  Kd (Escherichia coli 16S rRNA A-site hairpin; RNase A footprinting; peptide; pH 7.2, 37 °C): 16 ± 4 µM
CC1(C)[C@@H](O[C@H]2O[C@H](C(=O)O)[C@@H](O)[C@H](O)[C@H]2O[C@@H]2O[C@H](C(=O)O)[C@@H](O)[C@H](O)[C@H]2O)CC[C@]2(C)[C@H]3C(=O)C=C4[C@@H]5C[C@@](C)(C(=O)O)CC[C@]5(C)CC[C@@]4(C)[C@]3(C)CC[C@@H]12  Kd (High mobility group protein B1 (HMGB1, Homo sapiens, UniProt P09429); binding, biolayer interferometry; 25 °C, 1 % DMSO): 185 µM
CC(=O)N[C@@H](CC(C)C)C(=O)N[C@@H](CCCCN)C(=O)N[C@@H](CCCCN)C(=O)N[C@@H](Cc1c[nH]c2ccccc12)C(=O)N[C@@H](CC(C)C)C(=O)N[C@@H](CCCCN)C(=O)N[C@@H](CC(C)C)C(=O)N[C@@H](CC(C)C)C(=O)N[C@@H](CCCCN)C(=O)N[C@@H](CCCCN)C(=O)N[C@@H](CC(C)C)C(=O)N[C@@H](CC(C)C)C(=O)N[C@@H](CCCCN)C(=O)N[C@@H](CC(C)C)C(=O)N[C@@H](C)C(=O)NCC(N)=O  Kd (16S rRNA A-site hairpin (Escherichia coli); competitive fluorescence anisotropy; pH 7.4, 20 °C, with: rhodamine-Rev peptide): 0.015 ± 0.001 µM
N[C@@H](CO)C(=O)O  Kd (Methyl-accepting chemotaxis protein CtaA (Pseudomonas fluorescens, UniProt Q3K7T6); binding, ITC): 12 ± 1 µM
Nc1ncnc2c1ncn2[C@@H]1O[C@H](COP(=O)(O)O)[C@@H](OP(=O)(O)O)[C@H]1O  Kd (Sulfotransferase 2A1 (SULT2A1, Homo sapiens, UniProt Q06520); binding, tryptophan fluorescence; pH 7.0, 37 °C, ligand-free enzyme): 536 ± 26 µM
Nc1ccn([C@H]2C[C@H](O)[C@@H](COP(=O)(O)OP(=O)(O)OP(=O)(O)O)O2)c(=O)n1  Kd (DNA polymerase iota (Homo sapiens, UniProt Q9UNA4); substrate; pH 8.0, 37 °C, pre-steady-state, Mg2+, with: dNTP opposite O2-POB-dT template): 27 ± 3 µM
CC1=C(/C=C/C(C)=C/C=C/C(C)=C/C=C/C=C(C)/C=C/C=C(C)/C=C/C2=C(C)C(=O)[C@@H](O)CC2(C)C)C(C)(C)C[C@H](O)C1=O  Kd (StAR-related lipid transfer protein 3, START domain (STARD3, Homo sapiens, UniProt Q14849); binding, SPR; 25 °C): 2.09 ± 0.09 µM
Nc1ncnc2c1ncn2[C@@H]1O[C@H](COP(=O)(O)OP(=O)(O)OP(=O)(O)O)[C@@H](O)[C@H]1O  Kd (Serine/threonine-protein kinase TAO2 (TAOK2, Homo sapiens, UniProt Q9UL54)): 1.1 µM
CC/C=C/C=C\C=C/C=C/CCCCCCCC(=O)SCCNC(=O)CCNC(=O)[C@H](O)C(C)(C)COP(=O)(O)OP(=O)(O)OC[C@H]1O[C@@H](n2cnc3c(N)ncnc32)[C@H](O)[C@@H]1OP(=O)(O)O (relative stereo)  Kd (Carnitine O-palmitoyltransferase 1, liver isoform, C-terminal peptide (Rattus norvegicus, UniProt P32198); FRET): 0.02 ± 0.006 µM
CC1=C(/C=C/C(C)=C\C=C\C(C)=C\C=O)C(C)(C)CCC1  Kd (Rbp1; binding, fluorescence titration; pH 7.4, 25 °C): 0.008 ± 0.004 µM
CC[C@H](C)[C@H](NC(C)=O)C(=O)N[C@@H](CC(N)=O)C(=O)N[C@H](C(=O)N[C@@H](CCCNC(=N)N)C(=O)N[C@@H](CCCCN)C(=O)N[C@@H](CCCNC(=N)N)C(=O)N[C@@H](CC(N)=O)C(=O)N[C@H](C(=O)N[C@@H](CCC(=O)O)C(=O)N[C@@H](CO)C(=O)NCC(=O)N[C@@H](CCC(=O)O)C(=O)N[C@@H](CCC(=O)O)C(=O)N[C@@H](CCC(=O)O)C(=O)N[C@@H](CC(C)C)C(=O)N[C@@H](C)C(=O)N[C@@H](CO)C(=O)N[C@@H](CCCCN)C(=O)N[C@@H](CC(C)C)C(=O)N[C@@H](CC(=O)O)C(N)=O)C(C)C)C(C)C  Kd (Kelch-like ECH-associated protein 1 (KEAP1, Homo sapiens, UniProt Q14145); binding, ITC; pH 7): 0.23 µM
Nc1ncnc2c1ncn2[C@@H]1O[C@H](COP(=O)(O)OP(=O)(O)OP(=O)(O)O)[C@@H](O)[C@H]1O  Kd (THG1 K96A; tRNA(His) adenylylation, substrate, single-turnover kinetics; pH 6.0, room temperature, with: p-tRNA(His)): 320 ± 50 µM
CC(C)C[C@H](N)C(=O)O  Kd (Methyl-accepting chemotaxis protein CtaA sensing domain; binding, thermal shift, zero heat capacity; 25 °C): 30 ± 8 µM
O=S(=O)(O)c1cccc2cccc(Nc3ccc(Cl)cc3)c12  Kd (Cyclin-dependent kinase 2 (CDK2, Homo sapiens, UniProt P24941); binding): 17 µM
Nc1nc2c(ncn2[C@@H]2O[C@H](COP(=O)(O)OP(=O)(O)OP(=O)(O)O)[C@@H](O)[C@H]2O)c(=O)[nH]1  Kd (THG1 K96A; nucleotidyl transfer, substrate, single-turnover kinetics; pH 7.5, room temperature, with: ppp-tRNA(His)): 240 ± 70 µM
CNc1ccccc1C(=O)NCCn1ccc(=O)[nH]c1=O  Kd (Cereblon isoform 4 (Magnetospirillum gryphiswaldense, UniProt A4TVL0, W36F/W59F); binding, FRET competitive binding; tracer is compound): 3.26 µM
N[C@@H](Cc1ccc(OP(=O)(O)O)cc1)C(=O)O  Kd (Tyrosine-protein phosphatase non-receptor type 11, N-SH2 domain (PTPN11, Homo sapiens, UniProt Q06124); binding to N-SH2 domain; 298 K): 565 µM
Nc1nc2c(ncn2C2OC3COP(=O)(O)OC4C(COP(=O)(O)OC3C2O)OC(n2cnc3c(=O)[nH]c(N)nc32)C4OC(=O)NCCCCCCNC(=O)c2ccc(-c3c4ccc(=O)cc-4oc4cc(O)ccc34)c(C(=O)O)c2)c(=O)[nH]1 (stereo not shown)  Kd (Transcriptional regulator BldD, C-terminal domain (Streptomyces venezuelae, UniProt F2RCL8); fluorescence polarization; pH 7.5, 25 °C, apparent, multi-site assembly): 1.8 ± 0.5 µM
CC(C)[C@H](N)C(=O)O  Kd (Methyl-accepting chemotaxis protein CtaA sensing domain; binding, thermal shift, unfolding equilibrium): 2.5 ± 0.4 µM

Excerpt of the above:
Nc1ccn([C@H]2C[C@H](O)[C@@H](COP(=O)(O)OP(=O)(O)OP(=O)(O)O)O2)c(=O)n1  Kd (DNA polymerase iota (Homo sapiens, UniProt Q9UNA4); substrate; pH 8.0, 37 °C, pre-steady-state, Mg2+, with: dNTP opposite O2-POB-dT template): 27 ± 3 µM
CC1=C(/C=C/C(C)=C/C=C/C(C)=C/C=C/C=C(C)/C=C/C=C(C)/C=C/C2=C(C)C(=O)[C@@H](O)CC2(C)C)C(C)(C)C[C@H](O)C1=O  Kd (StAR-related lipid transfer protein 3, START domain (STARD3, Homo sapiens, UniProt Q14849); binding, SPR; 25 °C): 2.09 ± 0.09 µM
